Published values collected from several papers.
Each numbered part is a random draw from the data of one study; scales do not carry over between parts.
Chain of UniProt Q9P1W9 (whole entry, looked up): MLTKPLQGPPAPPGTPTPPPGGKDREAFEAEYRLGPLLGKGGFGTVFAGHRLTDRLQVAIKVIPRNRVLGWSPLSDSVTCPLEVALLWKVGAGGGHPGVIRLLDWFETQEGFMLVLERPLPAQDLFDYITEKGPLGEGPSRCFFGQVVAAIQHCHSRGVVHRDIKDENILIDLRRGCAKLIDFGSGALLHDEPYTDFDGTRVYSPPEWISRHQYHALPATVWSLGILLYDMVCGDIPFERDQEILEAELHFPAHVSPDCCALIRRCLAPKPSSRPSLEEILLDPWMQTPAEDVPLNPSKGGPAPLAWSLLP
Chain of UniProt O60331 (whole entry, looked up): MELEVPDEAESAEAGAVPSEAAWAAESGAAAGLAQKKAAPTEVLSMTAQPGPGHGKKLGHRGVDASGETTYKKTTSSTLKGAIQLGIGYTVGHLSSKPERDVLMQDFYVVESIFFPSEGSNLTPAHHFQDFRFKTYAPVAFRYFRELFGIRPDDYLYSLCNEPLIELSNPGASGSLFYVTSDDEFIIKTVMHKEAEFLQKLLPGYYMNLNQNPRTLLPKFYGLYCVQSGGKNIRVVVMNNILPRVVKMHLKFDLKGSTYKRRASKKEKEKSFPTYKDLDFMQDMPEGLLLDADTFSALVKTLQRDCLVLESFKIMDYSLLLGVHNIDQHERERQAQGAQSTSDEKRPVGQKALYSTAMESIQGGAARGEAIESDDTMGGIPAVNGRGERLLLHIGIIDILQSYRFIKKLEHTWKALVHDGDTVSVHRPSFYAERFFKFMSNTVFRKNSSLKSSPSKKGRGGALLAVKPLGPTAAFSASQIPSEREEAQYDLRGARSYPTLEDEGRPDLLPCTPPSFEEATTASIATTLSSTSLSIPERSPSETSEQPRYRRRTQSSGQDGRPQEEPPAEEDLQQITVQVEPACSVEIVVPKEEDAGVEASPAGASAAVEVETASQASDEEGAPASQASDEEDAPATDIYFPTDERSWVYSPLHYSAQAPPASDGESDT
Chain of UniProt Q9UQB9 (whole entry, looked up): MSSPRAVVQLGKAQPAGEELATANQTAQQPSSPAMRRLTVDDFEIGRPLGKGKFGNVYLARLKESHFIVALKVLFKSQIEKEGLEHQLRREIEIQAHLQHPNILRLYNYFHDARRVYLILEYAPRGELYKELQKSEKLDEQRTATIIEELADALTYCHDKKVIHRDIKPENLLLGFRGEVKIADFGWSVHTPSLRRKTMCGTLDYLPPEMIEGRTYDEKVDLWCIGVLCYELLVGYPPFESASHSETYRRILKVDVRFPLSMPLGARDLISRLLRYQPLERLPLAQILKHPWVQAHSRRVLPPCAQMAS
Chain of UniProt Q76MJ5 (whole entry, looked up): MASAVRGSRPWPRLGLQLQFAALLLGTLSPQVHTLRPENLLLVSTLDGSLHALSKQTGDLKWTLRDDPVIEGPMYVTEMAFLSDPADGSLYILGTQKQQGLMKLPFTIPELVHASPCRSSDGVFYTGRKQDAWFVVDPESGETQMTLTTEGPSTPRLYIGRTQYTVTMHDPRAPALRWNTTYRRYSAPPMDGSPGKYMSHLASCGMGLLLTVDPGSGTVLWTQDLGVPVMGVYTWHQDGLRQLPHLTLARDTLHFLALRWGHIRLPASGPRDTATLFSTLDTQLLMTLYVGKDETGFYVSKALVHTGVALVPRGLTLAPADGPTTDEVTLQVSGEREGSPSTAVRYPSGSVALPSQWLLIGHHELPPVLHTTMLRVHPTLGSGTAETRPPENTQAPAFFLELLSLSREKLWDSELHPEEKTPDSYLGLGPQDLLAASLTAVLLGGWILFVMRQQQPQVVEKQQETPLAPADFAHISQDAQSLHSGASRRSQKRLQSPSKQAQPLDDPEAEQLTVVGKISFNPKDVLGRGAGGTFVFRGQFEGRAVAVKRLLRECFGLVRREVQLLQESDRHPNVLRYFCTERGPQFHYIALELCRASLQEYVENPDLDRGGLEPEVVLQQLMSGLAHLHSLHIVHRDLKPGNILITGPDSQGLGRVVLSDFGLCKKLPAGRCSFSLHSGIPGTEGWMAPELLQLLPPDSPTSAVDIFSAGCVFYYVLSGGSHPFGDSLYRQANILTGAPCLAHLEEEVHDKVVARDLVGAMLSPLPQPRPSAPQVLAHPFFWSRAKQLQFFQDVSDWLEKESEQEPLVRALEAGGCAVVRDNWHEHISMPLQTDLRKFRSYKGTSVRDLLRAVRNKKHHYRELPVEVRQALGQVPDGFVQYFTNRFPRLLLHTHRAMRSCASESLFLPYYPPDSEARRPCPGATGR
Chain of UniProt P51817 (whole entry, looked up): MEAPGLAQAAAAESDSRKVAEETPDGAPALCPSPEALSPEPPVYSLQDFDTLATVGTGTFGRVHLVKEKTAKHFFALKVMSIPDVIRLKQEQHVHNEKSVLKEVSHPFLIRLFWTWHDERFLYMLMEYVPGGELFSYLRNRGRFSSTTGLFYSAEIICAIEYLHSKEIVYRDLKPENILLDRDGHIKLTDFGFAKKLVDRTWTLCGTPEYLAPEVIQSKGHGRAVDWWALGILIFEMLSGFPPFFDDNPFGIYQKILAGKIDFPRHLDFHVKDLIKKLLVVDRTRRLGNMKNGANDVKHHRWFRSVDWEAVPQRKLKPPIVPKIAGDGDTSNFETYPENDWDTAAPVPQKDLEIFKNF
Chain of UniProt Q15746 (whole entry, looked up): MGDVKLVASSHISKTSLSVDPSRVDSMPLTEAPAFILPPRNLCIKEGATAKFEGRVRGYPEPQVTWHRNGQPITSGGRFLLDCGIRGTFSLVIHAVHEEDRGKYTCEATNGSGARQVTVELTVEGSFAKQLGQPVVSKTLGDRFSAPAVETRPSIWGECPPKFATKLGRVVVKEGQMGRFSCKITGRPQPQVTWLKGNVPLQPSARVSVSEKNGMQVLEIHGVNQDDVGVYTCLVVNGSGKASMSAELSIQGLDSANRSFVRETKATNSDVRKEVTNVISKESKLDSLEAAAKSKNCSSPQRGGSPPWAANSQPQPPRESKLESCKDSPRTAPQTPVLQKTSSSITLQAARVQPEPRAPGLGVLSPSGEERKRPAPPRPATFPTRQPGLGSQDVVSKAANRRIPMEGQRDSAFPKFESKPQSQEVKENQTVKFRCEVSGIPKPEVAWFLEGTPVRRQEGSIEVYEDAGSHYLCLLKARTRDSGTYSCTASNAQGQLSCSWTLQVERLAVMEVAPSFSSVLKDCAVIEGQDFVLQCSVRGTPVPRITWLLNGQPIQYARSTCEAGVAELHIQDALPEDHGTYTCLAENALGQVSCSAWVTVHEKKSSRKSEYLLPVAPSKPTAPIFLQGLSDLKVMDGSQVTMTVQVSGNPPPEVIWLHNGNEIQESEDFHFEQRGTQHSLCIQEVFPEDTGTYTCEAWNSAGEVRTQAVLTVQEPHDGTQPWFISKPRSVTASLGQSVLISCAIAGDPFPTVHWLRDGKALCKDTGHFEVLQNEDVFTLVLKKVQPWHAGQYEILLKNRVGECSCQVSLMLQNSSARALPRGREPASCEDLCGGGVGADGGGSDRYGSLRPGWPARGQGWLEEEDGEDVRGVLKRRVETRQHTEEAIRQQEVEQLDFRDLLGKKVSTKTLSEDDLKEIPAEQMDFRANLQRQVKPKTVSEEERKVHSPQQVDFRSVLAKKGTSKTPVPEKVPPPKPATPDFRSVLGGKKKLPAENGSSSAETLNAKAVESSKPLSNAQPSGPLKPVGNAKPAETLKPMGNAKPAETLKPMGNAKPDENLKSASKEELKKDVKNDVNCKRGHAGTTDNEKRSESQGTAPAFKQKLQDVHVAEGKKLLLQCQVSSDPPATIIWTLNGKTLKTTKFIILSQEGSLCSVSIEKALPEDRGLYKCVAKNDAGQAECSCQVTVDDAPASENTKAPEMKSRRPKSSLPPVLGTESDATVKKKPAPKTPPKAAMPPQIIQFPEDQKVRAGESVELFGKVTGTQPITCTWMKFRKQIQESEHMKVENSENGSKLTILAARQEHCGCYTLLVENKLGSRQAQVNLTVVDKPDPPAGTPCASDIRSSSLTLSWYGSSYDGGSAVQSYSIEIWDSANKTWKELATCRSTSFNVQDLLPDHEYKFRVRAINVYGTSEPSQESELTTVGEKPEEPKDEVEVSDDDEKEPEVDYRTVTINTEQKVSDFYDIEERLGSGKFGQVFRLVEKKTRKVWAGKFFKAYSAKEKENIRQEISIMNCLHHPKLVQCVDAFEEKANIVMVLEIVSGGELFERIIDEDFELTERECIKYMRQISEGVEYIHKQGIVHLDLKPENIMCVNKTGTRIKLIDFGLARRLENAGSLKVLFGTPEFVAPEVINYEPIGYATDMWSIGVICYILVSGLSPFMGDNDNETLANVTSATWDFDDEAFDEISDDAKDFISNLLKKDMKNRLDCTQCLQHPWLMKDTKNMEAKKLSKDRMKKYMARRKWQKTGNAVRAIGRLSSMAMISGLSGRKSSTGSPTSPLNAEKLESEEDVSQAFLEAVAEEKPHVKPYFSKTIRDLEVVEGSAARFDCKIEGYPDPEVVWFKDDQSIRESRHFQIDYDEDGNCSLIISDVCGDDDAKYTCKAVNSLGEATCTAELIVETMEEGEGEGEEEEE

Study 1
Target: Calcium/calmodulin-dependent protein kinase type II subunit alpha (CAMK2A, Homo sapiens, UniProt Q9UQM7)
Chain of UniProt Q9UQM7 (whole entry, looked up): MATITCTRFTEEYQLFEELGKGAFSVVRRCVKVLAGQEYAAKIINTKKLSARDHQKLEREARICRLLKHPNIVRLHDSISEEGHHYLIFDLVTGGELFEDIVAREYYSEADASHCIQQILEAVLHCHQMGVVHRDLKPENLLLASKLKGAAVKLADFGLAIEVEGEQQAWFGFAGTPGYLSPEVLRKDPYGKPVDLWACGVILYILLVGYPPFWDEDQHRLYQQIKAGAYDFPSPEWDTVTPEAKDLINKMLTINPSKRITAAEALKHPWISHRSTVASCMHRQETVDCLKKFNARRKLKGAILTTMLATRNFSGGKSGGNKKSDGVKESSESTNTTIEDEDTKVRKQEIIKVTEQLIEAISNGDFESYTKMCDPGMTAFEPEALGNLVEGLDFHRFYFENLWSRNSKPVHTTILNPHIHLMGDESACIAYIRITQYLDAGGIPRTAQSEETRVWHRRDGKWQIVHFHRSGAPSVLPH
Effect on: enzyme activity
Mode: inhibitor
Tested at: 10 µM
SMILES | inhibition
COc1cc(O)cc2c1C(=O)C[C@@H](c1ccccc1)O2 | -32%
COc1cc(O)c2c(=O)c(OC)c(-c3ccc(OC)c(OC)c3)oc2c1 | 24%
CO/N=C(\C(=O)N[C@@H]1C(=O)N2C(C(=O)O)=C(/C=C\c3scnc3C)CS[C@H]12)c1csc(N)n1 | -1%
CC(C)C[C@H](NC(=O)CNC(=O)c1cc(Cl)ccc1Cl)B1OC(=O)C(CC(=O)O)(CC(=O)O)O1 | -6%
CCCN1C[C@H](NS(=O)(=O)N(CC)CC)C[C@H]2Cc3c(O)cccc3C[C@@H]21 | -8%
COc1cc([C@@H]2OC[C@@H]3[C@H]2CO[C@H]3c2cc(OC)c(O)c(OC)c2)cc(OC)c1O | -39%
O=c1ccoc2cc(O)cc(O)c12 | 23%

Study 2
SMILES: O=C(Nc1cnn(-c2csc(C(=O)NC3COC3)c2)c1)Nc1c(F)cccc1Cl
Effect on: enzyme activity
Tested at: 5 µM
target | test | scale | remaining activity [%]
PRKCD (Homo sapiens, UniProt Q05655) | – | baseline: untreated control | 100
PKN3 (Homo sapiens, UniProt Q6P5Z2) | – | baseline: untreated control | 76.2
Cyclin-dependent kinase 19, with cyclin C (CDK19, Homo sapiens, UniProt Q9BWU1) | – | baseline: untreated control | 93.3
MAPK3 (Homo sapiens, UniProt P27361) | – | baseline: untreated control | 92.1
ERN2 (Homo sapiens, UniProt Q76MJ5) | inhibitor | – | 100
ULK1 (Homo sapiens, UniProt O75385) | – | baseline: untreated control | 91.1
OXSR1 (Homo sapiens, UniProt O95747) | – | baseline: untreated control | 91.5
KSR1 (Homo sapiens, UniProt Q8IVT5) | – | baseline: untreated control | 100
Cyclin-dependent kinase 1, with cyclin A (CDK1, Homo sapiens, UniProt P06493) | – | baseline: untreated control | 86
KSR2 (Homo sapiens, UniProt Q6VAB6) | inhibitor | – | 92.7
Myosin-IIIa (MYO3A, Homo sapiens, UniProt Q8NEV4) | inhibitor | – | 82.8
Cyclin-dependent kinase 5, with p35 (CDK5, Homo sapiens, UniProt Q00535) | – | baseline: untreated control | 94.2
MAP3K12 (Homo sapiens, UniProt Q12852) | – | baseline: untreated control | 81.4

Study 3
Compound: O=C1NC(=O)c2c1c1c3ccccc3[nH]c1c1[nH]c3cc(Br)ccc3c21
Effect on: enzyme activity
Mode: inhibitor
Tested at: 0.5 µM
Baseline: control
target | remaining activity [%]
CSK (Homo sapiens, UniProt P41240) | 100
GRK2 (Homo sapiens, UniProt P25098) | 97.6
Aurora kinase C (AURKC, Homo sapiens, UniProt Q9UQB9) | 51.9
PRKCE (Homo sapiens, UniProt Q02156) | 95.7
EPHB2 (Homo sapiens, UniProt P29323) | 99.5
FLT3 (Homo sapiens, UniProt P36888) | 8.19
GSK3A (Homo sapiens, UniProt P49840) | 33.9
SGK1 (Homo sapiens, UniProt O00141) | 47.6
PIM2 (Homo sapiens, UniProt Q9P1W9) | 44.6
EPHA7 (Homo sapiens, UniProt Q15375) | 95.3
CSF1R (Homo sapiens, UniProt P07333) | 96
GRK6 (Homo sapiens, UniProt P43250) | 108
MYLK (Homo sapiens, UniProt Q15746) | 85.3

Study 4
SMILES: CS(=O)(=O)N1CCCC(NC(=O)[C@H](CCC2CCCCC2)NC(=O)c2ccc(CNC(=O)c3cnc4ccccn34)cc2)C1 (stereo partly shown)
Method: competition with immobilised ligand
target | test | conditions | remaining binding [%]
PIM2 (Homo sapiens, UniProt Q9P1W9) | cell-free assay | 0.1 µM | 100
PIP5K1C (Homo sapiens, UniProt O60331) | cell-free assay | 0.1 µM | 100
DCLK3 (Homo sapiens, UniProt Q9C098) | cell-free assay | 0.1 µM | 97
PRKX (Homo sapiens, UniProt P51817) | cell-free assay | 0.1 µM | 65
ZAP70 (Homo sapiens, UniProt P43403) | cell-free assay | 0.1 µM | 100
TEC (Homo sapiens, UniProt P42680) | cell-free assay | 0.1 µM | 94
ACVR1 (Homo sapiens, UniProt Q04771) | cell-free assay | 0.1 µM | 70
KIT (Homo sapiens, UniProt P10721, V559D/V654A) | cell-free assay | 0.1 µM | 100
Ribosomal protein S6 kinase alpha-6, C-terminal kinase domain (RPS6KA6, Homo sapiens, UniProt Q9UK32) | cell-free assay | 0.1 µM | 82
CDK7 (Homo sapiens, UniProt P50613) | cell-free assay | 0.1 µM | 100
BRAF (Homo sapiens, UniProt P15056) | cell-free assay | 0.1 µM | 47
FLT3 (Homo sapiens, UniProt P36888, ITD) | cell-free assay | 0.1 µM | 100
FLT3 (Homo sapiens, UniProt P36888, N841I) | cell-free assay | 0.1 µM | 67
MAP3K19 (Homo sapiens, UniProt Q56UN5) | cell-free assay | 0.1 µM | 71
STK38L (Homo sapiens, UniProt Q9Y2H1) | binding | 1 µM | 40
STK3 (Homo sapiens, UniProt Q13188) | cell-free assay | 0.1 µM | 88

A few entries again (study 3):
target | remaining activity [%]
GRK2 (Homo sapiens, UniProt P25098) | 97.6
GSK3A (Homo sapiens, UniProt P49840) | 33.9
Aurora kinase C (AURKC, Homo sapiens, UniProt Q9UQB9) | 51.9
CSF1R (Homo sapiens, UniProt P07333) | 96
